Experimental data gathered from unrelated publications.
Lines come from different studies, so protocols differ. ± marks the error that the study gave.

For `CC(C)[C@@H]1NC(=O)CNC(=O)[C@H](CC(N)=O)NC(=O)[C@H](CCCNC(=N)N)NC(=O)[C@H](Cc2ccc(O)cc2)NC(=O)[C@H](C(C)C)NC(=O)[C@@H](NC(=O)[C@@H](NC(=O)[C@H](CC(N)=O)NC(=O)[C@H](Cc2c[nH]c3ccccc23)NC(=O)[C@H](C)NC(=O)[C@H](Cc2ccccc2)NC(=O)CNC(=O)[C@H](CCCCN)NC(=O)[C@H](Cc2ccccc2)NC(=O)[C@H](Cc2ccccc2)NC(=O)[C@H](CCCCN)NC(=O)OCC2c3ccccc3-c3ccccc32)C(C)C)CSSC[C@@H](C(=O)N[C@@H](Cc2c[nH]cn2)C(=O)N[C@@H](CCCNC(=N)N)C(=O)N[C@@H](CCCNC(=N)N)C(=O)N[C@@H](C)C(=O)N[C@@H](CC(N)=O)C(N)=O)NC(=O)[C@H](C(C)C)NC(=O)[C@H](CCCNC(=N)N)NC1=O`, the eosinophils was 2.52 ± 0.2% (ICR mice, blood; intraperitoneal, 10 mg/kg, day 5).
For `CC(=O)NCCCC[C@@H]1NC(=O)[C@H](Cc2c[nH]c3c(C)cccc23)NC(=O)[C@H]([C@@H](C)O)NC(=O)[C@H](CC(N)=O)NC(=O)[C@@H](NC(C)=O)C(C)(C)SSC(C)(C)[C@@H](C(=O)N[C@@H](Cc2ccc(OCCN)cc2)C(=O)N[C@@H](Cc2ccc3ccccc3c2)C(=O)NC2(C(=O)N[C@@H](CCC(=O)O)C(=O)N[C@@H](CC(N)=O)C(=O)N[C@@H](Cc3cccnc3)C(=O)N(C)CC(N)=O)CCOCC2)NC1=O`, “share of drug-related material” read > 95% (metabolic profiling; Sprague Dawley rat, plasma; oral, 300 mg/kg, 0 to 24 h).
For `COc1nc(CC=C(C)CC=CC(C)=CC(C)C(OC2OC(CO)C(O)C(O)C2O)C(C)=CCO)c(C)c(O)c1OC` (centres unmarked), the Km was 39.05 ± 0.36 µM (glucuronidation, substrate; human liver microsomes; 15 min, pH 7.4).
For `CC[C@H](C)[C@H](NC(=O)[C@H](CCCCN)NC(=O)CNC(=O)[C@H](CC(C)C)NC(=O)[C@H](Cc1ccccc1)NC(=O)[C@H](CCCCN)NC(=O)[C@H](CO)NC(=O)[C@H](Cc1ccccc1)NC(=O)[C@H](Cc1c[nH]c2ccccc12)NC(=O)[C@H](CCC(N)=O)NC(=O)[C@@H](NC(=O)[C@H](Cc1ccccc1)NC(=O)CCCCCNC(=O)CN1CCN(CC(=O)O)CCN(CC(=O)O)CCN(CC(=O)O)CC1)C(C)C)C(=O)N[C@@H](CCC(=O)O)C(=O)N1CCC[C@H]1C(=O)N[C@@H](CC(=O)O)C(=O)N[C@H](C(=O)N[C@@H](CO)C(=O)N[C@@H](CCC(N)=O)C(=O)N[C@H](C(=O)N[C@@H](CCC(N)=O)C(=O)N[C@@H](CC(=O)O)C(=O)N1CCC[C@H]1C(=O)N[C@@H](CC(N)=O)C(=O)N[C@@H](CC(=O)O)C(=O)N[C@@H](CCC(N)=O)C(=O)N[C@@H](Cc1ccc(O)cc1)C(=O)N[C@@H](CCC(=O)O)C(=O)N1CCC[C@H]1C(=O)N[C@@H](Cc1ccccc1)C(=O)O)C(C)C)C(C)C` [copper-64 labelled], the SUVmean was 4.98 SUV (dynamic PET; mouse, CT26 tumour, checkpoint inhibitor-treated, tumour; intravenous, 100 µCi/mouse, 2220 s).
`CCCCC[C@H]1C(=O)N[C@H](C)C(=O)N(C)[C@@H](CCCCC)C(=O)N(C)[C@H](C)C(=O)N(C)[C@@H](CCCCC)C(=O)N[C@H](C)C(=O)N(C)[C@@H](CCCCC)C(=O)N(C)[C@H](C)C(=O)N1C` gave a log Papp of 2.45 ×10⁻⁶ cm/s (PAMPA; 500 µM, pH 7.4).
Under “intact peptide remaining”, `C[C@H](NC(=O)[C@@H](N)CC(=O)O)C(=O)N[C@@H](Cc1c[nH]cn1)C(=O)N[C@@H](CCCCN)C(N)=O` is recorded as 13% (RP-HPLC; 50% human serum; 100 µM, 24 h, 37 °C).
`CCCC[C@H]1C(=O)N(C)[C@@H](CCCC)C(=O)N[C@@H](CCCNC(=O)CN2CCN(CC(=O)O)CCN(CC(=O)O)CCN(CC(=O)O)CC2)C(=O)N[C@H](C(=O)NCC(N)=O)CSCC(=O)N[C@@H](Cc2ccc(O)cc2)C(=O)N(C)[C@@H](C)C(=O)N[C@@H](CC(N)=O)C(=O)N2CCC[C@H]2C(=O)N[C@@H](Cc2c[nH]cn2)C(=O)N[C@@H](CC(C)C)C(=O)N(C)CC(=O)N[C@@H](Cc2c[nH]c3ccccc23)C(=O)N[C@@H](CO)C(=O)N[C@@H](Cc2c[nH]c3ccccc23)C(=O)N1C` [gallium-68 labelled] has a tissue uptake of 6.77 ± 0.35 %ID/g (NOD/SCID mice with CHO-hPD-L1 xenograft, liver; 30 min post injection).
With `CC[C@H](C)[C@H](NC(=O)[C@H](C)NC(=O)[C@H](CCCCN)NC(=O)[C@H](CC(C)C)NC(=O)[C@@H](N)Cc1ccccc1)C(=O)N[C@@H](CCCCN)C(=O)N[C@@H](CCCCN)C(=O)N[C@@H](Cc1ccccc1)C(=O)NCC(=O)N[C@@H](CCCCN)C(=O)N[C@@H](CCC(=O)O)C(=O)N[C@@H](Cc1ccccc1)C(=O)N[C@@H](CCCCN)C(=O)N[C@@H](CCCCN)C(=O)N[C@H](C(=O)NCC(=O)N[C@@H](C)C(=O)N[C@@H](CCCCN)C(=O)N[C@@H](CC(C)C)C(=O)N[C@@H](CCCCN)C(=O)O)[C@@H](C)CC` the hemolysis was 0.204% (human red blood cells; 16 mg/L, 1 h, mean of replicates).
`C#Cc1c(F)ccc2cc(O)cc(-c3ncc4c(N5CC6CCC(C5)N6C(=O)OC(CC)OC(=O)CCC)nc(OC[C@@]56CCCN5C[C@H](F)C6)nc4c3F)c12` (some centres unmarked) gave a t1/2 of 1.75 min (measured: prodrug; mouse whole blood; 1 µM).
For `CC(C)C[C@H](NC(=O)CNC(=O)[C@H](CCC(N)=O)NC(=O)[C@H](CC(C)C)NC(=O)[C@H](CC(C)C)NC(=O)[C@H](CCCNC(=N)N)NC(=O)[C@H](CCC(N)=O)NC(=O)[C@H](CC(C)C)NC(=O)[C@H](CCCNC(=N)N)NC(=O)[C@H](C)NC(=O)CNC(=O)[C@H](CCC(=O)O)NC(=O)[C@H](CCCNC(=N)N)NC(=O)[C@H](CC(C)C)NC(=O)[C@H](CCCNC(=N)N)NC(=O)[C@H](CO)NC(=O)[C@H](CC(C)C)NC(=O)[C@H](CCC(=O)O)NC(=O)[C@H](CO)NC(=O)[C@@H](NC(=O)[C@H](Cc1ccccc1)NC(=O)[C@@H](NC(=O)CNC(=O)[C@H](CC(=O)O)NC(=O)C(C)(C)NC(=O)[C@@H](N)Cc1c[nH]cn1)[C@@H](C)O)[C@@H](C)O)C(=O)N[C@@H](CC(C)C)C(=O)N[C@@H](CCC(N)=O)C(=O)NCC(=O)N[C@@H](CC(C)C)C(=O)N[C@H](C(=O)NCC(=O)N[C@@H](CCCCNC(=O)COCCOCCNC(=O)COCCOCCNC(=O)CC[C@H](NC(=O)CCCCCCCCCCCCCCCCC(=O)O)C(=O)O)C(N)=O)C(C)C`, water intake read “no effect” (DIO C57BL/6J mice; sc, 300 nmol/kg twice daily, 8 days).
`C[C@H](O)[C@@H](NC(=O)[C@H]1CCCN1C(=O)[C@@H](CCCCN)NC(=O)[C@@H](CO)NC(=O)[C@@H](Cc1ccc(O)cc1)NC(=O)[C@@H](CC(N)=O)NC(=O)CCOCCOCCOCCNC(=O)CN1CCN(CC(=O)O)CCN(CC(=O)O)CCN(CC(=O)O)CC1)C(=O)N[C@H](CC(=O)O)C(=O)N[C@H](CCCNC(=N)N)C(=O)N[C@H](CCC(N)=O)C(=O)N[C@H](Cc1ccc(O)cc1)C(=O)N[C@H](Cc1c[nH]cn1)C(=O)N[C@H](Cc1ccccc1)C(N)=O` [copper-64 labelled] has a tissue uptake of 0.36 ± 0.08 %ID/g (C57BL/6J mice, bone; intravenous, 1.85 MBq, 0.6667 h, radiolabelled).
`O=C1NC2(CC2)COc2ncc(F)cc2[C@H]2COCCN2c2ccn3ncc1c3n2` gave a monocyte percentage of 1.3 ± 0.4% (Sprague-Dawley rat, female, blood; oral, 5 mg/kg/day, 4 weeks, end of recovery, subacute toxicity).
For `NC1CCN(C(=O)Oc2ccc(C3CCCC4(C3)OOC3(O4)C4CC5CC(C4)CC3C5)cc2)CC1` (racemic), the Cmax was 1520 ng/mL (male ICR mice, plasma; intravenous, 10 mg/kg).
For `CC(CCC(=O)NCC(=O)O)C1CCC2C3C(O)CC4CC(OC5OC(C(=O)O)C(O)C(O)C5O)CCC4(C)C3CCC12C` (centres unmarked), “glucuronide to parent ratio” read 0.482 (men, C/C genotype, plasma; dose not given, geometric mean).
`Cn1nc(NS(C)(=O)=O)c2c(Cl)ccc(-n3c([C@H](Cc4cc(F)cc(F)c4)NC(=O)Cn4nc(C(F)F)c5c4C(F)(F)[C@@H]4C[C@H]54)nc4nc(OCCC(F)(F)F)ccc4c3=O)c21` has a Cmax of 329 ng/mL (human, plasma; oral, 625 mg single dose, powder in bottle, geometric mean).
`CC[C@H](C)[C@H](NC(=O)CNC(=O)[C@H](CCSC)NC(=O)[C@H](CCC(N)=O)NC(=O)[C@H](C)NC(=O)[C@H](CCC(N)=O)NC(=O)[C@@H](NC(=O)[C@H](CC(C)C)NC(=O)[C@H](C)NC(=O)[C@H](CO)NC(=O)[C@H](CCSC)NC(=O)[C@H](CCC(=O)O)NC(=O)[C@H](CC(C)C)NC(=O)[C@H](Cc1ccc(O)cc1)NC(=O)[C@H](CO)NC(=O)[C@H](CCC(=O)O)NC(=O)[C@H](CCC(N)=O)NC(=O)[C@H](CCCNC(=N)N)NC(=O)[C@H](CCCCN)NC(=O)[C@H](CC(=O)O)NC(=O)[C@H](CC(C)C)NC(=O)[C@H](CC(N)=O)NC(=O)[C@H](Cc1ccccc1)NC(=O)[C@H](CCC(=O)O)NC(=O)[C@H](CCCCN)NC(=O)[C@@H](NC(=O)[C@H](CC(C)C)NC(=O)[C@H](CCC(=O)O)NC(=O)[C@H](CCC(=O)O)NC(=O)[C@@H](NC(=O)[C@@H](NC(=O)[C@H](CCCNC(=N)N)NC(=O)[C@H](CCCCN)NC(=O)[C@H](C)NC(=O)[C@H](Cc1ccccc1)NC(=O)[C@H](CCC(=O)O)NC(=O)[C@H](CCC(=O)O)NC(=O)[C@H](CC(C)C)NC(=O)[C@@H](N)CO)C(C)C)C(C)C)C(C)C)[C@@H](C)CC)C(=O)N[C@@H](CO)C(=O)N[C@@H](CCC(=O)O)C(=O)N[C@@H](CCCNC(=N)N)C(=O)N[C@H](C(=O)N[C@H](C(=O)N[C@@H](CCC(=O)O)C(=O)N[C@H](C(=O)N[C@H](C(=O)N[C@@H](CC(C)C)C(=O)N[C@@H](CCCNC(=N)N)C(=O)N[C@@H](Cc1c[nH]cn1)C(=O)N[C@@H](C)C(=O)N[C@@H](C)C(=O)N[C@@H](CCC(N)=O)C(=O)N[C@H](C(=O)N[C@@H](CC(C)C)C(=O)N[C@@H](CCCCN)C(=O)O)[C@@H](C)O)C(C)C)[C@@H](C)CC)[C@@H](C)CC)[C@@H](C)CC` has an MRT of 3.35 h (male mouse, plasma; intravenous, 1 mg/kg).
`CN1Cc2cc(Cl)ccc2-n2c(nnc2C2CCN(c3cccc([18F])n3)CC2)C1` has a tissue uptake of 2.47 ± 0.33 %ID/g (C57BL/6 mouse male, bone; intravenous, 3.7 MBq, 5 min).

Some of these lines once more:
Under “intact peptide remaining”, `C[C@H](NC(=O)[C@@H](N)CC(=O)O)C(=O)N[C@@H](Cc1c[nH]cn1)C(=O)N[C@@H](CCCCN)C(N)=O` is recorded as 13% (RP-HPLC; 50% human serum; 100 µM, 24 h, 37 °C).
`CCCC[C@H]1C(=O)N(C)[C@@H](CCCC)C(=O)N[C@@H](CCCNC(=O)CN2CCN(CC(=O)O)CCN(CC(=O)O)CCN(CC(=O)O)CC2)C(=O)N[C@H](C(=O)NCC(N)=O)CSCC(=O)N[C@@H](Cc2ccc(O)cc2)C(=O)N(C)[C@@H](C)C(=O)N[C@@H](CC(N)=O)C(=O)N2CCC[C@H]2C(=O)N[C@@H](Cc2c[nH]cn2)C(=O)N[C@@H](CC(C)C)C(=O)N(C)CC(=O)N[C@@H](Cc2c[nH]c3ccccc23)C(=O)N[C@@H](CO)C(=O)N[C@@H](Cc2c[nH]c3ccccc23)C(=O)N1C` [gallium-68 labelled] has a tissue uptake of 6.77 ± 0.35 %ID/g (NOD/SCID mice with CHO-hPD-L1 xenograft, liver; 30 min post injection).
